Measurements of several laboratories.
Parts stem from different laboratories: compare values within a part only. Several values in a cell are separate wells, animals, samples, runs or records.
UniProt P48729, sequence (whole entry, looked up): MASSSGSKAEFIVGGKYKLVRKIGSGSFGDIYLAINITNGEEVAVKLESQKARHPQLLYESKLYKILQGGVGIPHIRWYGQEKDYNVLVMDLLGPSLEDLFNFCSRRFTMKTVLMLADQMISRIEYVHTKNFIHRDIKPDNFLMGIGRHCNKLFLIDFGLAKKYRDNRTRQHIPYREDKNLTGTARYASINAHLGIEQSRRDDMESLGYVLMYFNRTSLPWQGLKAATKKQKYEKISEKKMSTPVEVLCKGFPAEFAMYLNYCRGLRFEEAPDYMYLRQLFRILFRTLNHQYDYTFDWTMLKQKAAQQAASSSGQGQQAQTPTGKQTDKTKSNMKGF
UniProt Q6PHR2, sequence (whole entry, looked up): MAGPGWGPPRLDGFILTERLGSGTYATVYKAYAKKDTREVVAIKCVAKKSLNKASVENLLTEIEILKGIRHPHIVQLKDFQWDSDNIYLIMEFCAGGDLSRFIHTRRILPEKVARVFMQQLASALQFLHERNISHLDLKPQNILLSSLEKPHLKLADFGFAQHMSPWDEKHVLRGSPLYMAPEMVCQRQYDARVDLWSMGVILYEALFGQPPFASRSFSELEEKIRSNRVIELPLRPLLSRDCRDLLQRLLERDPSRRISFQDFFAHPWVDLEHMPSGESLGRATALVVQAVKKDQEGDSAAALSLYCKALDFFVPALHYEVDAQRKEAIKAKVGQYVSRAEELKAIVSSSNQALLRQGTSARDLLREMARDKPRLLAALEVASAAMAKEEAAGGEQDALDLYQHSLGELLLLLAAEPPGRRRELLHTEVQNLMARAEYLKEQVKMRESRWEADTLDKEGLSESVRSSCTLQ
UniProt P15735, sequence (whole entry, looked up): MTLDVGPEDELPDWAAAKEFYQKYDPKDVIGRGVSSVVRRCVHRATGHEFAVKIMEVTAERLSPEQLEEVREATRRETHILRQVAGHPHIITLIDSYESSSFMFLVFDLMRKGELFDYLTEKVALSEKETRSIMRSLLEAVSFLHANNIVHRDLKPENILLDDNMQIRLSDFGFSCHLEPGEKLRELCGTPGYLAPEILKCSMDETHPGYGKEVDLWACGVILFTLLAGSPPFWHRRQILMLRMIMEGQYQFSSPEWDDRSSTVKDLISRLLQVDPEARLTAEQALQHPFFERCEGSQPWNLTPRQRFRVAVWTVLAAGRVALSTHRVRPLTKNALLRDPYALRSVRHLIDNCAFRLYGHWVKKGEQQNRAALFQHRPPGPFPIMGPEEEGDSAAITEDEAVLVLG

Sample 1
SMILES: O=C1CCC(N2Cc3cc(C4CCN(Cc5ccccc5)CC4)ccc3C2=O)C(=O)N1 (centres unmarked)
Action: degrader
IKZF4: Zinc finger protein Eos (IKZF4, Homo sapiens, UniProt Q9H2S9)
UniProt Q9H2S9, sequence (whole entry, looked up): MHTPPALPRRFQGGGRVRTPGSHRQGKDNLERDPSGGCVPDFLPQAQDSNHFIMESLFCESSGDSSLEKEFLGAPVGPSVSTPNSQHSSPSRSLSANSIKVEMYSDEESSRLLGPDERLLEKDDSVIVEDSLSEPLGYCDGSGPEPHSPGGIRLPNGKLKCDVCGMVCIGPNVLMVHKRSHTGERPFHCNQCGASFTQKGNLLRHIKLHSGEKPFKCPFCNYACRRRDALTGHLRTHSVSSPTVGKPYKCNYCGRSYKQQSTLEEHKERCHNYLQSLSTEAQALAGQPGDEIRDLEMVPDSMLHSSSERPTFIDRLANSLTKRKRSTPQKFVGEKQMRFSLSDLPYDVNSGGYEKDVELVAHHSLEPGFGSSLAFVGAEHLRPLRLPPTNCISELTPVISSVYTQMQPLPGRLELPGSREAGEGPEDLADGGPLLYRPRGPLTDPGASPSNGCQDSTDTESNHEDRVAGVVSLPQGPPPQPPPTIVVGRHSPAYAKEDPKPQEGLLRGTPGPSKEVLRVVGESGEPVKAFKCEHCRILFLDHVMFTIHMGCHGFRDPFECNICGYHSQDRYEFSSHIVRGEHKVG
CRBN/Zinc finger protein Helios: CRBN/Zinc finger protein Helios (Homo sapiens, UniProt Q96SW2+Q9UKS7)
UniProt Q9UKS7, sequence (whole entry, looked up): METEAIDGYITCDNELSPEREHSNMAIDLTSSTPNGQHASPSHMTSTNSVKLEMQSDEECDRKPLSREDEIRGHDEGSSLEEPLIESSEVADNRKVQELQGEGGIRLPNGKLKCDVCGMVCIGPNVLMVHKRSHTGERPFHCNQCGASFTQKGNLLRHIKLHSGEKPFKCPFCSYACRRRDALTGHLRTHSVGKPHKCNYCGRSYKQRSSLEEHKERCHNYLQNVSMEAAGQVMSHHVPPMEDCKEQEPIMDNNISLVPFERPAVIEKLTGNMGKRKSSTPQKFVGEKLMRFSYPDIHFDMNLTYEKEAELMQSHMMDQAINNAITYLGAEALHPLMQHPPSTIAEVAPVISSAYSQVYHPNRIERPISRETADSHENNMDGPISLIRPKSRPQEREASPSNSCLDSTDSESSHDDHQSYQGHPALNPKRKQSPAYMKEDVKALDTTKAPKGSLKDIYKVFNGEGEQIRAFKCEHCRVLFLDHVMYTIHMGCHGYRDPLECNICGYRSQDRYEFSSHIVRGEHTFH
UniProt Q96SW2, sequence (whole entry, looked up): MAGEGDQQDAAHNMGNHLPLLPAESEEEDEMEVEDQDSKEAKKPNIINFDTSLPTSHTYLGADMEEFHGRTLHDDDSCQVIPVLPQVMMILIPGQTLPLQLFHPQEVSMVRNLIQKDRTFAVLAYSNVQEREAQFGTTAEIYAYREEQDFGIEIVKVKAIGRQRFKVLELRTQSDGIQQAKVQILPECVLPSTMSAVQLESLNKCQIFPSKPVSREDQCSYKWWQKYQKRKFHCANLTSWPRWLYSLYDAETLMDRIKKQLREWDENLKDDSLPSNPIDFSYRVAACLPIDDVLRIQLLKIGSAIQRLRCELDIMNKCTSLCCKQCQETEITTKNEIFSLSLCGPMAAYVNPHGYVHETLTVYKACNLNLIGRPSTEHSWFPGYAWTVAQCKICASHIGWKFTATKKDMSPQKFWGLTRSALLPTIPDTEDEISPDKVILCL
SALL4: Sal-like protein 4 (SALL4, Homo sapiens, UniProt Q9UJQ4)
UniProt Q9UJQ4, sequence (whole entry, looked up): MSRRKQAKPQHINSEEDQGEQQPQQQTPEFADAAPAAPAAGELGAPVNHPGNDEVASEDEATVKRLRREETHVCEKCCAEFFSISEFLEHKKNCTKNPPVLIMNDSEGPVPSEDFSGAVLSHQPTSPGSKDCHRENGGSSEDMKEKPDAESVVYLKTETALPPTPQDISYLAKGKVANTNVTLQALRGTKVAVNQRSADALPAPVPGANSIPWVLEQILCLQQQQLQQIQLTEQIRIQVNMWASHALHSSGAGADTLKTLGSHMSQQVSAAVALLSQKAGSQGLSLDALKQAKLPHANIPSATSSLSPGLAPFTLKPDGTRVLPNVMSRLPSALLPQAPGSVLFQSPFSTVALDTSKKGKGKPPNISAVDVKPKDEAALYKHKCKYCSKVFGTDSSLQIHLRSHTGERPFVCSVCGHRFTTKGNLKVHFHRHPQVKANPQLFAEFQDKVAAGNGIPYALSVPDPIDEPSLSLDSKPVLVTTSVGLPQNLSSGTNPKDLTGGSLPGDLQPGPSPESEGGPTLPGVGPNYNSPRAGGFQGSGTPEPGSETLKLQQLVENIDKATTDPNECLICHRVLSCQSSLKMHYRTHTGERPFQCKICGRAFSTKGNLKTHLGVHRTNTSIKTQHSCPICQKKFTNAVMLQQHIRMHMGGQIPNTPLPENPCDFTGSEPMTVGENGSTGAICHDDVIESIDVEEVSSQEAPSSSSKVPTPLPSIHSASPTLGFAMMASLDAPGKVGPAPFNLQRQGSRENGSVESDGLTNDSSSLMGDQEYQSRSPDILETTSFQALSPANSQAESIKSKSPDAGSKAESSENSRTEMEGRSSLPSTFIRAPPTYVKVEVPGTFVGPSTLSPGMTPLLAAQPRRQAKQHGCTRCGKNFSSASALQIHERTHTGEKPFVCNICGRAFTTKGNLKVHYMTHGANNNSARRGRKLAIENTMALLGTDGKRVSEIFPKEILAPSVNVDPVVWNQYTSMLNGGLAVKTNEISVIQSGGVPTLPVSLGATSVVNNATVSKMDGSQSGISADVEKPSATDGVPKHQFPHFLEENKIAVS
It gave 94.7% and 88.5% for remaining protein (CSNK1A1 (Homo sapiens, UniProt P48729); HiBiT; HEK293 HiBiT-CK1α; 10000 nM).
IKZF4; HiBiT; HEK293; 0.004115 µM, 3 h — remaining protein: 115%.
It gave 100% for remaining protein (CRBN/Zinc finger protein Helios; flow cytometry; primary human regulatory T cells; 0.03704 µM, 3 h).
SALL4; HiBiT; HEK293; 3.333 µM — remaining protein: 48.9% and 46.1%.
It gave 77.9% and 79.5% for remaining protein (SALL4; HiBiT; HEK293; 0.0005081 µM).
The remaining protein was 101% (CRBN/Zinc finger protein Helios; flow cytometry; primary human regulatory T cells; 5.08e-05 µM, 3 h).
DNA-binding protein Ikaros (Homo sapiens, UniProt Q13422); HiBiT; HEK293; 3.333 µM, 6 h — remaining protein: 92.1%.
It gave 112% for remaining protein (IKZF4; HiBiT; HEK293; 0.0004572 µM, 3 h).

Sample 2
Target: Serine/threonine-protein kinase NLK (NLK, Homo sapiens, UniProt Q9UBE8)
Read-out: enzyme activity
Action: inhibitor
Tested at: 0.5 µM
Reference: control
Construct (Q9UBE8 1-527): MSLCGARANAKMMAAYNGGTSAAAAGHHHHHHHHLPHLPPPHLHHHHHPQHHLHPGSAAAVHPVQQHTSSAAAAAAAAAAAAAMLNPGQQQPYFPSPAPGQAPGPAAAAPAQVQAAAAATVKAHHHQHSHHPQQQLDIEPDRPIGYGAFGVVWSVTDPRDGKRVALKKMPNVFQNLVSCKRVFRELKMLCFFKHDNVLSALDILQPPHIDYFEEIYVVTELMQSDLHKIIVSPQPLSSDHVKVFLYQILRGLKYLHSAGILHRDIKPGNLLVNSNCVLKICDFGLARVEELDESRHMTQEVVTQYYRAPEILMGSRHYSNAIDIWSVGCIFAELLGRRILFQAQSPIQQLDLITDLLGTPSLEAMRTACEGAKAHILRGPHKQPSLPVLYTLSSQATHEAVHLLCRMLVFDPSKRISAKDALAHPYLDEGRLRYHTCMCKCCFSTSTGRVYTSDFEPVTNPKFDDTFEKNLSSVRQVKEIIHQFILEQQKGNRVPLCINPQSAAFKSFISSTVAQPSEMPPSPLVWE
With `Cc1cccc(-c2[nH]c(C(C)(C)C)nc2-c2ccc3c(c2)OCO3)n1` the remaining activity was 87.9%.
The remaining activity of `Cc1nc(-c2ccccc2)c(-c2ccncc2)o1` is reported as 79.4%.
`O=C(Nc1cccc(Nc2cc(Nc3cccc(C(F)(F)F)c3)ncn2)c1)C1CC1` gave a remaining activity of 95.9%.
The remaining activity of `Cc1ccc(NC(=O)c2ccc(CN3CCN(C)CC3)cc2)cc1Nc1nc(-c2cccnc2)cs1` is reported as 106%.
`CN(C)c1ccc(C=C2C(=O)Nc3ccccc32)cc1` has a remaining activity of 102%.
`COc1ccc(C(=O)Nc2sc3c(c2C(N)=O)CCCC3)cc1OC` gave a remaining activity of 93.7%.
With `COc1ccc(OC)c2c(=S)c3ccccc3[nH]c12` the remaining activity was 98.8%.
With `O=c1c2ccccc2[nH]c(=S)n1CCN1CCC(=C(c2ccc(F)cc2)c2ccc(F)cc2)CC1` the remaining activity was 99.5%.
With `COc1cc2nccc(Oc3ccc(NC(=S)NC(=O)c4ccccc4C)cc3)c2cc1OC` the remaining activity was 100%.
The remaining activity of `OCC(O)CCON=C1C(c2c(O)[nH]c3ccccc23)=Nc2ccccc21` (centres unmarked) is reported as 101%.
With `COc1ccc(CNC(=O)Nc2ncc([N+](=O)[O-])s2)cc1` the remaining activity was 102%.
For `Cn1c2ccccc2c2c3c(c4c5ccccc5n(CCC#N)c4c21)CNC3=O`, the remaining activity was 57.3%.
With `N#CC(C#N)=C(N)/C(C#N)=C/c1ccc(O)cc1` the remaining activity was 96.7%.
`O=S(=O)(c1cccc2cnccc12)N1CCCNCC1` has a remaining activity of 97.3%.
The remaining activity of `CCOC(=O)c1c(C)[nH]c(/C=C2\C(=O)Nc3ccccc32)c1C` is reported as 94.8%.
The remaining activity of `Nc1[nH]nc2nc3ccccc3nc12` is reported as 95.2%.

Sample 3
Compound: CCC(=N\O)/C(C)=C/c1ccc(F)cc1
Tested at: 1 µM
For PHKG2 (Homo sapiens, UniProt P15735); cell-free assay, competition with immobilised ligand: remaining binding read 90%.
For PIK3CA (Homo sapiens, UniProt P42336); cell-free assay, competition with immobilised ligand: remaining binding read 100%.
It gave 96% for remaining binding (MAP3K13 (Homo sapiens, UniProt O43283); cell-free assay, competition with immobilised ligand).
The remaining binding was 60% (EGFR (Homo sapiens, UniProt P00533); cell-free assay, competition with immobilised ligand).
MAP4K4 (Homo sapiens, UniProt O95819); cell-free assay, competition with immobilised ligand — remaining binding: 97%.
RIOK2 (Homo sapiens, UniProt Q9BVS4); cell-free assay, competition with immobilised ligand — remaining binding: 86%.
For AAK1 (Homo sapiens, UniProt Q2M2I8); KINOMEscan; reference: control: remaining binding read 89%.
For Cyclin-dependent kinase 4, with cyclin D1 (CDK4, Homo sapiens, UniProt P11802); cell-free assay, competition with immobilised ligand: remaining binding read 78%.
For RET (Homo sapiens, UniProt P07949, V804L); cell-free assay, competition with immobilised ligand: remaining binding read 100%.
It gave 74% for remaining binding (ULK3 (Homo sapiens, UniProt Q6PHR2); cell-free assay, competition with immobilised ligand).

Other studies, line by line
`CC(C)n1cnc(-c2ccc(F)cc2)c1-c1ncc(C(=O)Nc2ccc(N3CCN(C)CC3)cc2)[nH]1` has a Nausea incidence of 0% (IPF patients; 30 mg once daily, adverse event).

Repeated from above (sample 1):
DNA-binding protein Ikaros (Homo sapiens, UniProt Q13422); HiBiT; HEK293; 3.333 µM, 6 h — remaining protein: 92.1%.
It gave 94.7% and 88.5% for remaining protein (CSNK1A1 (Homo sapiens, UniProt P48729); HiBiT; HEK293 HiBiT-CK1α; 10000 nM).
